Experimental data pooled from the literature.
Each numbered part is a random draw from the data of one study; scales do not carry over between parts.

Series 1
Target: RNA binding protein fox-1 homolog 2, RRM domain, GST-SBP tag (RBFOX2, Homo sapiens, UniProt O43251-10, residues 100-194)
Technique: RNA Bind-n-Seq
Molecule type: RNA
Sample: in vitro
Tested at: 365 nM
Setting: natural RNA segment, single round, ends assumed
Relative to: no-protein control
Reading: higher = stronger binding
All sequences stand within: GGGAGUUCUACAGUCCGACGAUC … UGGAAUUCUCGGGUGCCAA
Target sequence (chain): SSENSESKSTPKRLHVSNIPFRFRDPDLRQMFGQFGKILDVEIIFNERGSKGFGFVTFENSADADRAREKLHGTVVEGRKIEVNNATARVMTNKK
| Oligonucleotide | RBNS enrichment (R) |
| --- | --- |
| CGUGGUCCAAGAUUCAAAAAUCCUAUUGAUAGUGGCCAUUUUAAUCAUUGCCAUCGUGUGCUUGUUUCAUCCAGUGUUAUGCACUUUCCACAGUUGGACAUGGUGUUAGU | 1 |
| CGUUUGGUUUUCUUUUCAGAACUUGGGAGCCCCCAGGGAGGGGCUAGUGUUGGUAGGUCCUAGACGUGGUUCCCUCCAGCCUCCCCAAAAUCAACCCUGGUGUUGAGAGA | 0.343 |
| CUUGUGAUAUCAGUGUAUGCGUACCUGUGUCGCUUUAUUUGCAGUGUGUUGAGGGACUGGUGUAUCCACUGGAAUAGUUGGUACUCUUGGAUGUGUUUUCUCACCAAGAU | 0.529 |
| UUUUGUAAUUUUAGGUAGUUAUCAGUUUCUCCACUAGCUCCAUGUUCUAGCUUUUUCCUCCCCACAGGACCUUGGGUAAAAUGGUCAUUUGUAAGGUGAAUUUCAAAGGG | 0.596 |
| GUAAUACAAACACAAACAUCAUACACACUGACUCUGAACUGGGUGAACUCUGUGAAGGGAGGCCCAGAAUGGGUGCUUUCACCAAAAAAUUUGCCCGUUUACAAUCCUAG | 0.417 |
| AGCUCUCCCUGAGGCCAGAGGCGGGGCCUGGGCCGGGAGCCCAGGGGAAGGCCAGGCUGGACCCCGGCUCCACACCCACAUCCAGCCUGCAGGCCUCUCUGCAGUCCUCU | 0.215 |
| CCAAAGACAGUCUCAGAAAGCUGCACUGCCCACCGGCUCAGCUUUCAUUCAAAAAGGCUUCCAAGGCCAAUUCUGUCUUGAAGUCAAUGCAUGUAUUUACUGUUUGACAG | 6.53 |
| CCCACUCCUUUCAUAUACGUUUGUGAAGCACCUGCCUUGAGUUCUAAUAAAAUUGCCCGUUUUGCAUUUGUACCCAGAGUAAUAUGUGCCAGAUACUUCAAUCUCAGAAU | 1.67 |
| GGCCGAACUCGCCCCACACCUGCGGGCGCCUGGCUGCCGACGCCGGUGGAGGCCACGCCGUCGGUCGGGAACGGUCGCGUCGCCCGGGUCGCCGCCGCCGCCGCCGCCGU | 0.246 |
| AAGCUAAAUAUUAUAUAUUUUAUUUUUCAUACAUGUUUGAAGUGCAAAUCUGUGGAUAUUCCAUUUGUAGGACCAAGUCGACAUGCCCAUCCUGACAUUGUAUGCUACGA | 0.547 |
| CCCUACAGUAAAUAAACCAGCAUCGUGCCGCCCAAAGCCGCCUCUGCUUAGUUGCCAAACAAGGGGUCUUCCACCCCCUAUUCUACUGAUUUCUGGACCCAGGGAAGGGA | 0.29 |
| CCAAUUCUUACUGUUCAGGUUUGAUGUGGAAUCACAGCUGCAGUGAUAUAUAUUUUUUAUCAGUGCUUGGUUGGUUUUAAAUAAAGUGCACGCUAUUUUAUUAUCUUGUU | 3.93 |

Series 2
Target: RING finger protein unkempt homolog, zinc fingers 1-6, SBP tag (UNK, Homo sapiens, UniProt Q9C0B0, residues 30-357)
Sequence of UniProt Q9C0B0 (30-357, looked up): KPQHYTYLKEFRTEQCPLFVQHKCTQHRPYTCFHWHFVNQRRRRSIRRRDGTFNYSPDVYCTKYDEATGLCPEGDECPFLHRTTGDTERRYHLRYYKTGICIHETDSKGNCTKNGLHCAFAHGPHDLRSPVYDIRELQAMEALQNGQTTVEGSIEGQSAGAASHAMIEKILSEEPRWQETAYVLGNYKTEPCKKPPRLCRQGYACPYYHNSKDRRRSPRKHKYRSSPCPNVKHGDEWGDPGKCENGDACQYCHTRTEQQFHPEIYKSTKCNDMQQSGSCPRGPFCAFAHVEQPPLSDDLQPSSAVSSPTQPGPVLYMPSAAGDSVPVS
Technique: RNA Bind-n-Seq
Molecule type: RNA
Sample: in vitro
Tested at: 100 nM
Setting: RNA with constant flanks, vertebrate orthologous sites, ends assumed
Relative to: input RNA pool
Reading: higher = stronger binding
All sequences stand within: GGGAGUUCUACAGUCCGACGAUC … CAACAGAGGAUUGAGCAUCA
| Oligonucleotide | bound/input enrichment |
| --- | --- |
| UAUAAGAACUCUUGCAGUCUUAGAUGUUUUAAAAAUAUAUAUCUGAAUUGUAAGAGUUGUUAGCACAAGUUUUUUUUUUUUUUUUUUUAAGCACUUGUUUUGGGUACAAGGCAUUUCUGA | 0.889 ratio |
| UUCUUUUUACUUCCUUAUUUACUCCUUCCUUCCUUCUUUUCUUUCAUUUUUUUUUUUUUGUAGUUGUUGUUACCCACGCCAUUUUACGUCUCCUUCACUGAAGGGCUAGAGUUUUAACUU | 2.68 ratio |
| UUUGUGGGGGUCGGGGGGUGGGGAGAAGAUGUAUGGAUGUUAUUGGCAUUUUUAAGUGUUCAGAGUUUUUUGGGGUUUUUUUUUUUCCUCCUGUUUUGUUUUUUCCCUUUAAUUGGAUGC | 0.788 ratio |
| GCAUGCACAUGCCACUGUCACCAAAAGCAACUACCGUCUUCAAAACCUCCAAUAGCCUUCUUAGGAUUCUCUCCCUCUUUCCCUUCUGUUCCCCCGAUGCUUUAAAUGAUUAGAAGUCCU | 1.78 ratio |
| UAUGUCCUUGAUUCACAUUCCUCUCUGUUUGUGUUUAGAGAAAGGAAAAAAAAAGACAUUUUAGCCUUUUUUAAAGUUAUCGAUAUAAUUUCUUAUUACUUGGUUGCAUGAAGUUGCCCU | 0.594 ratio |
| GUGACUUUGGACGUCCGUUCAUCCUCGGUGUAGGUUUUACUUAGUCCCGGGCCUGCCGUGUUUGGUUUUUCCCUUUGGGCAGGAGGCCUCUGCCGCAACCAUGUUACGCCAGAUCAUCGG | 0.409 ratio |
| GUUGGUGCAGAGCGCCCCGGGCCACUGCUCUUCAUCCCUUCUUCACGCCAACCACCCCCCCUAGUUCUAGGAAUUUAAUGUUUUUAAAAGUUUUACAUUGCUGUAUAUUCAAAGAUUUGU | 1.64 ratio |
| CUACCAUUGUAACCUGCUGUAUAAUAACCUUAGGCAUUUAUCAAUUGUUGAUACAAAUGUUAGUCCUUAACCACUUUUUAUAUGUUUUAAAUUUUGAAAUUCAAGUGUACCUGCCAUAAC | 2.45 ratio |
| UCCCCGUUCACCCUUAAGAUAGAACUUUUUAAAAUUGUGUUGCCACCACUUCUGAAAACUUAGCAAUAUUAGAAUAAGAUGUUAGUGAAGUAAAUUUUGCUCAUUAUUUUGCAAACCUAA | 2.46 ratio |
| CUGAGGCUUUGUAUUUGGCUGCACUUGCAUAAGCUGCUACAAAUAGAAUAAAGAAUUUCAUAGCCUGUAUCUAUCAUUUAGAUGCAUGGUCAAUGGGCUUUGCACACAAUGGGUUUGGAG | 1.73 ratio |
| CUCAAGCUUUGUGUUUGGCUGUACUUGCAUUAGCUGCUACAAAUAGAAUAAAGAAUUUCAUAGCCAGUAUCUAUCAUUUAGAUGCAUGGAAAAUGGGCUUUGCACAAUGGGUUUGGAGCU | 2 ratio |

Series 3
Target: Interferon regulatory factor 5, full length, phosphomimetic (IRF5, Homo sapiens, UniProt Q13568-2, residues 1-514, K96S/S451D/S453D/S456D/S462D)
Technique: protein-binding microarray
Molecule type: double-stranded DNA, one strand shown
Sample: in vitro
Tested at: 250 nM
Setting: 60-bp whole probe
Together with: salmon DNA 0.4 mg/ml
Relative to: random background probes
Reading: higher = stronger binding
All sequences stand within: GCCTAGCAC … GTCTTGATTCGCTTGACGCTGCTG
| Oligonucleotide | log fluorescence |
| --- | --- |
| TTAGTACTGGGGTATCGGTTAGTGCTA | 2.39 z-score |
| GACGGTTCCGGGTTTCGGGACGTGCTA | 2.1 z-score |
| TCAACAGTTTTATTTTAGACTGTGCTA | 0.996 z-score |
| TTAGATCTCAGTATCGTTTAGTGCTAG | 2.91 z-score |
| TTAGATATCGGGTTTCGCTTAGTGCTA | 5.54 z-score |
| GACGGTCACCTTCTCCTGACGTGCTAG | -0.218 z-score |
| TTAGGTTTCGCACTGGGTTAGTGCTAG | 3.1 z-score |
| TGTACTTTCTATCTCTGTTTGTGCTAG | 5.57 z-score |
| TTAAATCTCAGACTGGATTAGTGCTAG | -0.0473 z-score |
| TTAGATATCGGGTTTCGTTTAGTGCTA | 5.81 z-score |
| TTTTCACTTTCTTTAACATAGTGCTAG | 6.19 z-score |
| GACGGGCTCCTTATCCTGACGTGCTAG | -0.525 z-score |
| TCAAAGATTCCTCTCACACTGTGCTAG | 0.0416 z-score |
| TTAGATATCGGGTATCGATTGGTGCTA | 5.57 z-score |
| GACGGACTGGTTATCGGGACGTGCTAG | 0.201 z-score |
| TCAACTTTCCCCTTCCTACTGTGCTAG | 1.5 z-score |
| GACGGTTTCATTATCCTGACGTGCTAG | 2.93 z-score |

Series 4
Target: Sal-like protein 4, full length isoform A (SALL4, Homo sapiens, UniProt Q9UJQ4, residues 1-1053)
Sequence of UniProt Q9UJQ4 (whole entry, looked up): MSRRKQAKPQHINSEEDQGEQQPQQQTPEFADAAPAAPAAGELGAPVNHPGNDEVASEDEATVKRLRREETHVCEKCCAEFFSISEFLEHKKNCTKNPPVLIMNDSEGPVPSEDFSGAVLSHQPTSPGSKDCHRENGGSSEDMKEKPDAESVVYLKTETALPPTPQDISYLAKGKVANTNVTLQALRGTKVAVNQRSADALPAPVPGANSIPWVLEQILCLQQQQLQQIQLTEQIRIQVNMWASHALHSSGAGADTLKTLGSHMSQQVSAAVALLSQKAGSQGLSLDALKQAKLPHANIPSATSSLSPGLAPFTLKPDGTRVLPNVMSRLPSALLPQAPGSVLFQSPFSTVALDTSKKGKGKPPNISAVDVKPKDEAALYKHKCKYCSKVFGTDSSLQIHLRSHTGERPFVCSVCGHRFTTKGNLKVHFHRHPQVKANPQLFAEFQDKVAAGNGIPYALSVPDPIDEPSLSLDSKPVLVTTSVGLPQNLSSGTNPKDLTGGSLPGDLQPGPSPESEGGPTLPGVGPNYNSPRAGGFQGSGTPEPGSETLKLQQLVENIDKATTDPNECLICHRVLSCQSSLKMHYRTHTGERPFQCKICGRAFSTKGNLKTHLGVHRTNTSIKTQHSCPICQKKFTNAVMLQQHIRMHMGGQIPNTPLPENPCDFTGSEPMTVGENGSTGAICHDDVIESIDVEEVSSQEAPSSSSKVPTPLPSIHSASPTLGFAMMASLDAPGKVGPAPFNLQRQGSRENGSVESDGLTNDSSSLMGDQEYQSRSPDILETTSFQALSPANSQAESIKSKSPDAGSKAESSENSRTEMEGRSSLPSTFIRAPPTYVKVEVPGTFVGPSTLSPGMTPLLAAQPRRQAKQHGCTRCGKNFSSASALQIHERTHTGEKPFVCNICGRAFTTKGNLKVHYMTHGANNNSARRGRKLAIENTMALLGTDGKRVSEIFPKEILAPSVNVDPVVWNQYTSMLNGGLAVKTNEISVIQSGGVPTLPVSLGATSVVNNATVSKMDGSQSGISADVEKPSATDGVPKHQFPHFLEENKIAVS
Technique: universal PBM
Molecule type: double-stranded DNA, one strand shown
Sample: in vitro
Tested at: 600 nM
Setting: 8-mer, flanks averaged, mean of replicates
Reading: higher = stronger binding
| Oligonucleotide | E-score |
| --- | --- |
| TCGCGCCA | -0.238 |
| TCGTTTCA | 0.144 |
| AACTCGAA | -0.014 |
| GAGCAATC | -0.118 |
| ATTGACGG | 0.0805 |
| CGTAACCC | -0.207 |
| ATGTTCGA | 0.0384 |
| GGTTACAC | -0.0753 |
| TCGCATAA | 0.289 |
| CCGAAAGC | -0.195 |
| CACGGGTA | -0.183 |
| ACGAAGCC | -0.157 |
| GAAAGAAC | 0.0229 |
| CTAAGAGC | -0.275 |
| GTAAGACA | -0.00288 |
| CCGGACCC | -0.375 |
| TCTAGCAA | 0.102 |
| ACCTTATA | 0.235 |
| AATTTCTG | 0.281 |
| ATAGTTCC | 0.111 |
| CCCTTTGC | -0.104 |
| ATCTCCAA | 0.116 |
| CAAGTCTG | -0.0822 |
| AAAAGATA | 0.296 |
| CCGGAGAA | -0.213 |
